Measurements of several laboratories.
Each numbered part is a random draw from the data of one study; scales do not carry over between parts.

Set 1
Target: Histone acetyltransferase KAT6A, winged helix 1, GST fusion (KAT6A, Homo sapiens, UniProt Q92794, residues 1-85)
Technique: protein binding microarray
Form: double-stranded DNA, one strand shown
Sample: in vitro
Tested at: not given
Notes: 8-mer, flanks averaged, mean of 2 arrays, mostly near background
Baseline: not given
Direction: higher = stronger binding
Construct (chain): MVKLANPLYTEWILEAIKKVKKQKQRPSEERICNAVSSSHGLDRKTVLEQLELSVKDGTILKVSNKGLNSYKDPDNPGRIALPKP
For `CATACGTC`, the E-score was 0.0921.
With `GTACGTAA` the E-score was -0.0624.
`AACTAGGC` has an E-score of -0.0538.
The E-score of `AACCCGCG` is reported as 0.396.
With `ATCCGAAT` the E-score was 0.0487.
`CCAGTAGC` has an E-score of 0.108.
With `AATATCGT` the E-score was -0.131.
With `CTAACGAG` the E-score was -0.125.
The E-score of `ACGTAGCG` is reported as 0.131.
`AGGAAACC` gave an E-score of 0.0752.
`GGCGAGCC` gave an E-score of 0.0686.
With `ACTAAACA` the E-score was -0.222.
`TCTTCTCA` has an E-score of -0.111.
`CGAAACAG` gave an E-score of -0.156.
`CTTACACA` has an E-score of -0.182.
With `CCTACCCA` the E-score was -0.229.
`ACAAGGAG` has an E-score of -0.0709.
`TAACATCA` gave an E-score of -0.2.
With `TAGATACA` the E-score was -0.228.
`AAACAATC` has an E-score of -0.0115.
`GAAAACGC` gave an E-score of 0.121.
`ACTGCGGA` has an E-score of 0.232.
With `ACAGTGCC` the E-score was -0.0416.
The E-score of `GATCACGA` is reported as -0.13.
`GTTGACCA` gave an E-score of -0.185.

Set 2
Target: RING finger protein unkempt homolog, zinc fingers 1-6, GST-SBP tag (UNK, Homo sapiens, UniProt Q9C0B0, residues 30-357)
UniProt Q9C0B0, sequence (30-357, looked up): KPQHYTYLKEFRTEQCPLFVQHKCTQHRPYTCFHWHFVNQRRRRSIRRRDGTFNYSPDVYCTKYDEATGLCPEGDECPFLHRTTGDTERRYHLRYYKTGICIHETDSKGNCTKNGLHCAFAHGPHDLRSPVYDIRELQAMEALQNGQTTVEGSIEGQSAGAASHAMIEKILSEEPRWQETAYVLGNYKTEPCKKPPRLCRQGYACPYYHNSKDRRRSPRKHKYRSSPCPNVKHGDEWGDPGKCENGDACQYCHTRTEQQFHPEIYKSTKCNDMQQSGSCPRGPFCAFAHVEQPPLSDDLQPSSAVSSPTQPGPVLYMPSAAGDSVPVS
Technique: RNA Bind-n-Seq
Form: RNA
Sample: in vitro
Tested at: not given
Notes: RNA with constant flanks, ends assumed
Baseline: input RNA pool
Direction: higher = stronger binding
All sequences stand within: GGGAGUUCUACAGUCCGACGAUC … CAACAGAGGAUUGAGCAUCA
For `GUAACGCUGCUGCCCGGAGCCGCGUUGGAGGCCUCCCUUCCCAUUAAGUGCCUCUUUGCACCGCACCGGCCCCACCCCCACGCUCACUGGUACUACUACAGAGCAGCGCGCCAUGGCGGG`, the bound/input enrichment was 0.315 ratio.
With `GUAGAAUUUAUUUUGUCUUUUAUUGAUCACAUUGCUGGAGAUGAGGAUCAUACGGACGGAGUGGCCGCCUGUGCUGCUGGUCUGAUAGGGGACUUGUGUACAGCCUUCGGGAAGGAUGUA` the bound/input enrichment was 1.62 ratio.
`AUGGCAGCUCAUGUCAGUAGGGACAGAGUUAUAAAGAACUGUAUAGCCCAGACCUCAGCAGCCGUAAAAAGUCUCCGAGAAGAGAGAGAAAAGAACCUGGAUGACUUAACGUUAUUAAAG` gave a bound/input enrichment of 0.329 ratio.
The bound/input enrichment of `CUCAAUGCCUUAACCAAGCGUGUCUCCCCACUGAUAGGACGUUUUGUUCCCUUCGCUGCUGCCGCUGCUGCUAACUGCAUUAACAUCCCACUGAUGAGACAAAGGGAGCUGAAGGUUGGU` is reported as 0.246 ratio.
For `ACUGUCCAGGAGGUUCACCCAGGAGAACCUCCAUUCGACCUAGAGCUUUUCUACGUUAAGUACCGAAAUUUUUCCUAUUUACAUUGUAAAUGGGCCACAAUGGAAGAACUGGAAAAGGAU`, the bound/input enrichment was 0.209 ratio.
With `UAUUUCAUGAAGCCACUGCAUGGUAAAUAUGCAACUUCACGUUUUUCUGUUUUUAACACAUUCCGACCUUGGUUAAAAAUUCCUUUUGUUUAUGAUAAUUGUUUUUGCCAUUUGUAUAUU` the bound/input enrichment was 0.169 ratio.
The bound/input enrichment of `AUAAGCUGCACUAGGUAUUCACAAAUGGAUCCAAGAUAAAAUCAUUUUUCUGAAACUUUUUUCCGUGAGAUGGUUUUCCAGCAAAUAGCAUUUACAAGAUAAAGUGAUUAUGUUUUUAAC` is reported as 3.55 ratio.
For `GCACAGCAGUUGUACAGCAGGGGUCCUCCUGCCCCUCAUAUUGUGGGAUCCACUCCCGGAUCUUUCCAAGGUGCUGCAUCGUCAGCAUCCCAUUUGCAUACGAGUGCCUCCCAACCAUAC`, the bound/input enrichment was 0.233 ratio.
The bound/input enrichment of `UCAAAAUUAUGGCAUCGUCAAAGCAUUGUGGUGUCUUUUUUACUGCUGCUUGCUGUGCUUACCGCUACGUAUUAUGUUGAAGGAGUGCAUCAACAGUAUGUGCAACGUAUAGAGAAACAG` is reported as 0.228 ratio.
For `AAGUGCUUAUGAUUCAAUUAAUCUACAUUUUGGUAAUCAAUUAUAAAAUACUUUUUAAAUCCGUAUUGGCUAUUUUUUUUUUUUACCCUGGGAAGAUGCUGUCUGCUCACAGGAGUCCCA`, the bound/input enrichment was 1.71 ratio.
`CCGUGUGACCCUUGGGCUUUCAGCGUGCACUCAGUUCCGUAGGAUUCCAAAGCAGACCCCCCGCUGGUCUUUGAAUCUGCAUGUACUUCACGUUUUCUAUAUUUGUAACUUUGCAUGUAU` has a bound/input enrichment of 0.143 ratio.

Set 3
Target: Phosphate system positive regulatory protein PHO4, full length, GST-tagged (PHO4, Saccharomyces cerevisiae, UniProt P07270, residues 1-312)
Technique: competition protein-binding microarray
Form: double-stranded DNA, one strand shown
Sample: in vitro
Tested at: 2 µM
Notes: whole 60-bp probe, lowest competitor level
Added: Cbf1 competitor, 0.05 µM
Direction: higher = stronger binding
All sequences stand within: … GTCTTGATTCGCTTGACGCTGCTG
Construct (chain): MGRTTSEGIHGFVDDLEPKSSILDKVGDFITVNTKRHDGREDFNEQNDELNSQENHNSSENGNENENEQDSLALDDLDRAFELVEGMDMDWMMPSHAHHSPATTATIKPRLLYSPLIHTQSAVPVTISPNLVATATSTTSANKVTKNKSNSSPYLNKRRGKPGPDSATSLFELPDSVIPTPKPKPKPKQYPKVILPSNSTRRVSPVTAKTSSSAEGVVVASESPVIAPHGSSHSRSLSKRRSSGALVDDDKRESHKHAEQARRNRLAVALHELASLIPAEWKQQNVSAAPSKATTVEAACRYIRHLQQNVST
With `GATCGGCTACGCAACTACGTGCATCGCTCCGTTGGA` the fluorescence intensity was 6900 a.u.
`CTCTTCCTGAATTTGCACGGGGAACCAAGGCCTATC` gave a fluorescence intensity of 7120 a.u.
`TGGTTACAAGATATACGCGTGACTCGTTTTTTATTT` has a fluorescence intensity of 8480 a.u.
`CTTTCCCGATCTTGGGATGTGGGTGTAGCACATTTG` gave a fluorescence intensity of 5330 a.u.
`GGTAATCCCTAAGAACACATGCCCATAGTGGAAGAT` gave a fluorescence intensity of 9830 a.u.
With `TTTCGAACGGAGCCGTGCGTGCTTTGAGTTTTTTGA` the fluorescence intensity was 9200 a.u.
With `CTTCTGTAAATTTTTCACGTGCAGTGAAGCGCCCCG` the fluorescence intensity was 13800 a.u.
For `CATACCCAACCTTGTGTGGTGGGTGAAGATATTTGT`, the fluorescence intensity was 6390 a.u.
`GTCTTGTCTCATTGCAGGGTGGGTGTCCCCACTTCA` gave a fluorescence intensity of 4340 a.u.
For `AAGGCAACAAGCCGACACGTGGAGGAAAGCCAGGAG`, the fluorescence intensity was 16000 a.u.
The fluorescence intensity of `GTAATAGGAATAGACCGTGTGATGGTTGCCGTCAGC` is reported as 6200 a.u.
`CCGATATGCAGACATCATGTTCCTGTATTTTTTGAC` gave a fluorescence intensity of 7030 a.u.
With `AAAGCGGTAATTTGGGAAGTGGGTGCAGATATCTAT` the fluorescence intensity was 4430 a.u.
For `TGCCTTTCTGAAACGAATGTGACGGATACAGATACC`, the fluorescence intensity was 5060 a.u.
With `TATTCTAGTTAGCGTCACCTGATGCAGAATTGGCGG` the fluorescence intensity was 3780 a.u.
For `CGTCCTAGTGATTGCAAGGTGGGTGCCATGAGGAAG`, the fluorescence intensity was 6530 a.u.
The fluorescence intensity of `TCGGTCTTCTTGATGCTCGTGAACGCCATTTGGTCC` is reported as 4800 a.u.
`ATACCAGCACCAGACAACATGGCTCGGTAACCACCA` gave a fluorescence intensity of 5880 a.u.
`AAAATGCCAAAGTTCCACGTGCATCCAAACCAGTAG` gave a fluorescence intensity of 16800 a.u.
`CTAACGAAGGTTTGAAGCGTGGGTGACAAGCCAAGT` gave a fluorescence intensity of 7120 a.u.
For `GGGCGCCGCGACGGTCACGTGCACAGCGGCAGGCCT`, the fluorescence intensity was 13100 a.u.
For `TGCGCAACAACTTGGGTCGTGGGTGTATGTCTAGAA`, the fluorescence intensity was 8350 a.u.
With `CGGGGTTAAGTTTGTAGCGTGGGTGGCTTGCAGCAG` the fluorescence intensity was 6800 a.u.
For `GTCTTGAAGTTGGCGCACATGGAAATCAAATGACCA`, the fluorescence intensity was 9750 a.u.
The fluorescence intensity of `CGTCCTAGCGATTGAGACGTGGGTGCCATGAGGAAG` is reported as 8360 a.u.

Set 4
Target: Ras GTPase-activating protein-binding protein 1, RRM domain (G3BP1, Homo sapiens, UniProt Q13283)
UniProt Q13283, sequence (whole entry, looked up): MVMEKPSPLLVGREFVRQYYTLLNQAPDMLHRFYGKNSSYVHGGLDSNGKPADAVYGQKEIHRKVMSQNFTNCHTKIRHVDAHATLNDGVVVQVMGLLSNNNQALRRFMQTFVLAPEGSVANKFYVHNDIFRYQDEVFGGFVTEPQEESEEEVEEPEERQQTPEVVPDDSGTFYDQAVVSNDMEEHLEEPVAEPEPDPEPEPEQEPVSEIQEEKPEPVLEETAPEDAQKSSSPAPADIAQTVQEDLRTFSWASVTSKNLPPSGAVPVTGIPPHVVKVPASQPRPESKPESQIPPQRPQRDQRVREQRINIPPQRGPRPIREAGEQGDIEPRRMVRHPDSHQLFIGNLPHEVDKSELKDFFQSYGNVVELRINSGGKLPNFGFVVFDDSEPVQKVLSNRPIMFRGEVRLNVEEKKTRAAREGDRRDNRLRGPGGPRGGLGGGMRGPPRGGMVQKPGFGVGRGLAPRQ
Technique: RNA Bind-n-Seq
Form: RNA
Sample: in vitro
Tested at: 1 µM
Notes: whole 134-nt RNA, ends assumed
Added: 150 mM KCl
Baseline: input library
Direction: higher = stronger binding
All sequences stand within: GGGAGUUCUACAGUCCGACGAUC … UGGAAUUCUCGGGUGUCAAGG
The log2 enrichment of `UAACUUUAGAGGAGGAUCUGAUGGAUAUGGCAGUGGACGUGGAUUUGGGGAAGGCUAUAAUGGGUAUGGAGGAGGACCUGGAGGUGGCAA` is reported as -0.217.
With `AAGUCCUGUGCUACACAUCGUAUGUACCGAAUCGGAGGAAAAAAAGGAAAAAAAGGAAAGUAUUAUGUUACGCCGUUCGGAUCUGCACUU` the log2 enrichment was -0.0368.
The log2 enrichment of `CAAGUCCUGUGCUACACAUCGUAUGUACCGAAUCGGGAAAAAGGGUUUGGGAGGGAAAGUAUUAUGUUACGCCGUUCGGAUCUGCACUUC` is reported as 0.871.
For `AAGUCCUGUGCUACACAUCGUAUGUACCGAAUCGGGAGGGUUUUUUUGGGUUUGGGAAAGUAUUAUGUUACGCCGUUCGGAUCUGCACUU`, the log2 enrichment was 0.468.
With `CAAGUCCUGUGCUACACAUCGUAUGUACCGAAUCGGGGUUUGGGUUUGGUUUGGGAAAGUAUUAUGUUACGCCGUUCGGAUCUGCACUUC` the log2 enrichment was -0.435.
The log2 enrichment of `CCUGCUUUUGGGGGUGACCGCCGGAGCGCGGCGUGAGCCCUCCCCCUUGGGAUCCCGCAGCUGACCAGUCGCGCUGACGGACAGACAGAC` is reported as -0.612.
With `CUGUGCUACACAUCGUAUGUACCGAAUCGGUUUUUUUGGGUUUUUUUGGGGUUUUUUUGGGAAAGUAUUAUGUUACGCCGUUCGGAUCUG` the log2 enrichment was -0.266.
With `AGUCCUGUGCUACACAUCGUAUGUACCGAAUCGGGGUUUGGGGAAAGGGGAAAGGGGAAAGUAUUAUGUUACGCCGUUCGGAUCUGCACU` the log2 enrichment was 1.88.
For `UGUUGGGCUUCGAUCCCAGGUGGAUGAUGAUGCCUUCCUACAUGGACCCACGUAUCACGCCCACUCGGACCCCGGUGGACUUCUACCCCU`, the log2 enrichment was -0.325.
The log2 enrichment of `AAGUCCUGUGCUACACAUCGUAUGUACCGAAUCGGGAAAAAGGGUGGGUUUUUGGGAAAGUAUUAUGUUACGCCGUUCGGAUCUGCACUU` is reported as 0.784.
`CUGUGCUACACAUCGUAUGUACCGAAUCGGGAAAAAAAGGGAAAAAAAGGGGAAAAAAAGGGAAAGUAUUAUGUUACGCCGUUCGGAUCU` gave a log2 enrichment of 0.245.
`UCCUGUGCUACACAUCGUAUGUACCGAAUCGGCCCCCCGGGGCCCCCCGGGCCCCCCGGAAAGUAUUAUGUUACGCCGUUCGGAUCUGCA` gave a log2 enrichment of -0.335.
`UAACUUUAGAGGAGGAUCGGAUGGAUAUGGCAGUGGACGUGGAUUUGGGGAUGGCUAUAAUGGGUAUGGAGGAGGACCUGGAGGUGGCAA` gave a log2 enrichment of -0.735.
For `GCAGGAAGUAAAAACAAAUGGAAACGCUUCGGAUAGUGGCAGGGGUGGGGGUUGCUAAGGAAAGGGUGGGAUGGGAGUGGGUAAAGAGUU`, the log2 enrichment was 1.07.
